Measurements of several laboratories.
Numbered parts are unrelated; each lists some results of a single study. Substitutions count along the parent as printed.

Study 1
Target: Histone acetyltransferase KAT6A, both winged helices, GST fusion (KAT6A, Homo sapiens, UniProt Q92794, residues 1-181)
Technique: protein binding microarray
Molecule type: double-stranded DNA, one strand shown
Matrix: in vitro
Concentration: not given
Setting: 8-mer, flanks averaged, mean of 2 arrays, mostly near background
Baseline: not given
Direction: higher = stronger binding
Construct (chain): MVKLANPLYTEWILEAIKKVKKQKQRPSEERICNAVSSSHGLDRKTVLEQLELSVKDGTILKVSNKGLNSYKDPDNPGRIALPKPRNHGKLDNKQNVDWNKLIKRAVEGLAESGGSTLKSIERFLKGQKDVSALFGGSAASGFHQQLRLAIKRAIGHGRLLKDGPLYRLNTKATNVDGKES
Sequence | E-score
AAAAAATT | -0.0511
GAACCTCA | 0.0127
ATACCAGC | -0.172
GCATTCAC | 0.0293
AGGTATAT | -0.163
AGACTTTA | -0.0876
GGTAGCTA | 0.0108
ACCTACAG | -0.0683

Study 2
Target: HLA class I histocompatibility antigen, A alpha chain, allele A*26:03 (Homo sapiens, UniProt P04439)
Observed: peptide-MHC binding
Molecule type: peptide
Concentration: concentration not given
Sequence | binding
GTEEIKSLY | inactive
DWSGYSGSF | inactive
RIGGVLIFR | inactive
RRNRKALWL | inactive
SRWAISHWL | inactive
TVGYMYIMK | inactive
RQMKSGGRF | inactive
ATADLELAY | inactive
LVGGREWSY | inactive

Study 3
Target: UBE2D4 UBC core domain (UniProt Q9Y2X8)
Technique: yeast two-hybrid
Matrix: yeast
Setting: mostly zero background
Baseline: not given
Direction: higher = stronger interaction
B1: TRIM28 RING domain (UniProt Q13263); chain GAEALELLEHCGVCRERLRPEREPRLLPCLHSACSACLGPAAPAAANSSGDGGAAGDGTVVDCPVCKQQCFSKDIVE
B2: RNF17 RING domain (UniProt Q9BXT8); chain SQPWGAAEIQCTRCGRRVSRSSGHHCELQCGHAFCELCLLMTEECTTIICPDCEVATAVNTRQR
B3: TRIM2 RING domain (UniProt Q9C040); chain VRQIDKQFLICSICLERYKNPKVLPCLHTFCERCLQNYIPAHSLTLSCPVCRQTSILPEKGV
B4: MARCHF2 RING domain (UniProt Q9P0N8); chain RLLSTVIRALDTPSDGPFCRICHEGANGECLLSPCGCTGTLGAVHKSCLEKWLSSSNTSYCELCHTEFAVEKRPRPLTEWL
B5: UBE4B RING domain (UniProt O95155); chain KNARAEIDYSDAPDEFRDPLMDTLMTDPVRLPSGTIMDRSIILRHLLNSPTDPFNRQTLTESMLEPVPELKEQIQAWMREKQNSDH
B6: ARIH1 RING domain (UniProt Q9Y4X5); chain NTRSSAQDMPCQICYLNYPNSYFTGLECGHKFCMQCWSEYLTTKIMEEGMGQTISCPAHGCDILVDDNTVM
B7: TRIM32 RING domain (UniProt Q13049); chain NLDALREVLECPICMESFTEEQLRPKLLHCGHTICRQCLEKLLASSINGVRCPFCSKITRITSLTQ
B8: PJA2 RING domain (UniProt O43164); chain DHTAIGQEQCCPICCSEYIKDDIATELPCHHFFHKPCVSIWLQKSGTCPVCRRHFPPAVIEA
Target sequence (chain): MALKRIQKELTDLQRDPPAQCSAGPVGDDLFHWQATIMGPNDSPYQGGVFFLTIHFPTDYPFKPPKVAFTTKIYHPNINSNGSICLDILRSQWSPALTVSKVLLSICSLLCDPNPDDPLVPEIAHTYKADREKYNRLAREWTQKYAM
Sequence | lacZ reporter activity
B1 (TRIM28 RING domain) | 0
B2 (RNF17 RING domain) | 0
B3 (TRIM2 RING domain) | 0
B4 (MARCHF2 RING domain) | 0
B5 (UBE4B RING domain) | 0
B6 (ARIH1 RING domain) | 0
B7 (TRIM32 RING domain) | 0
B8 (PJA2 RING domain) | 2420
VPADASPDSKCPICLDRFDNVSYLDRCLHKFCFRCVQEWSKNKAECPLCKQPFDSIFHSV (TOPORS RING domain (UniProt Q9NS56)) | 15700

Study 4
Target: CCNE2, cyclin fold, Cln2 fusion (human)
Technique: yeast growth competition, sequencing
Matrix: yeast
Setting: strong parent motif
Baseline: not given
Direction: higher = stronger binding
Starting sequence: viral docking peptide; KGVKRKLFAEDSS; partner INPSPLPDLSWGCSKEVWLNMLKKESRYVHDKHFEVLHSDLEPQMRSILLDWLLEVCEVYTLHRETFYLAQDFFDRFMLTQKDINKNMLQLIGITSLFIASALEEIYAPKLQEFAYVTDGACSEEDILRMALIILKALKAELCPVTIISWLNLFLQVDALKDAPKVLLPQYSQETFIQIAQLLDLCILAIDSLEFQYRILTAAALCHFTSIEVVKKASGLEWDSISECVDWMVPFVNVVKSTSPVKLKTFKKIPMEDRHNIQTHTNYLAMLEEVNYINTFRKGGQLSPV
Change | normalised enrichment score
KGVKRKLFAEDHS [S12H] | 6.47
KGVKRFLFAEDSS [K6F] | 1.81
KGVKRILFAEDSS [K6I] | 5.92
KGVKRWLFAEDSS [K6W] | 2.63
KGVKRLLFAEDSS [K6L] | 3.12
KGVKRKSFAEDSS [L7S] | 0.324
KGVKRCLFAEDSS [K6C] | 4.02
KGVKRKLFAKDSS [E10K] | 3.81
KGVKRKLFATDSS [E10T] | 6.1
KGVKYKLFAEDSS [R5Y] | -0.0582
KGVKRKLFARDSS [E10R] | 3.39
KGVKRKLFAEDLS [S12L] | 6.79
KGVKRKFFAEDSS [L7F] | 1.32
KGVKRKLFSEDSS [A9S] | 6.58
KGVKRKVFAEDSS [L7V] | 0.834
KQVKRKLFAEDSS [G2Q] | 6.23
KFVKRKLFAEDSS [G2F] | 5.53
KGVKRKLFAEDVS [S12V] | 6.95
KGVKAKAFAEDSS [R5A L7A] | 0.279
KGVKRRLFAEDSS [K6R] | 7.55
KGVKRKMFAEDSS [L7M] | 0.754
KGVKRKGFAEDSS [L7G] | 0.63
KGVKRKLFAEDTS [S12T] | 6.88
KGVLRKLFAEDSS [K4L] | 1.15
KGVKRKCFAEDSS [L7C] | 0.461

For quick reference, copied from above (study 2):
Sequence | binding
SRWAISHWL | inactive
DWSGYSGSF | inactive
ATADLELAY | inactive
RIGGVLIFR | inactive
TVGYMYIMK | inactive
RQMKSGGRF | inactive
RRNRKALWL | inactive
GTEEIKSLY | inactive
